Measurements of several laboratories.
Every numbered part comes from another study and shows a few of its results, in no order. Substitutions count along the parent as printed.

Study 1
Target: RING finger protein unkempt homolog, zinc fingers 1-6, GST-SBP tag (UNK, Homo sapiens, UniProt Q9C0B0, residues 30-357)
Method: RNA Bind-n-Seq
Molecule type: RNA
Matrix: in vitro
Concentration: not given
Setting: RNA with constant flanks, human and mouse sites, ends assumed
Reference: input RNA pool
Reading: higher = stronger binding
Quantity: bound/input enrichment
Constant ends, left off below: GGGAGUUCUACAGUCCGACGAUC … CAACAGAGGAUUGAGCAUCA
Target sequence (chain): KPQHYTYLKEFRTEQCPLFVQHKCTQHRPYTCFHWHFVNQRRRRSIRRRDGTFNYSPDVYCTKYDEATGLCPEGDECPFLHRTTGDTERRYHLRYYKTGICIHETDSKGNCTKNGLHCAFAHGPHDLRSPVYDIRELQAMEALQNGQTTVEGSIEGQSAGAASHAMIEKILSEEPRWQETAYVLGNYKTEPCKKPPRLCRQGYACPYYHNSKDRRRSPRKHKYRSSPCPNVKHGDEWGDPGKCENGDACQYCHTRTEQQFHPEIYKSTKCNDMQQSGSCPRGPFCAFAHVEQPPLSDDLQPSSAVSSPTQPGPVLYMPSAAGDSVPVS
GAAACUAUUCCUAAAGAGGAGAAAGCUGAAAAGGAAGCUCGGAGAUCAUCUCUUGAGAAACAUAGAAAAGAAAAGCCUUUUAAAACCGGGAGAGGCAGAAUUUCCACUCCUGAAAGAAAA: 0.266 ratio
AUAUUUCAUAUUGCAAAGAUGUUUACAAGUAUUUUAAUUUAAGUUCAGUGAACUUUUUUGUAGCUGGGUUAAAUCUUUUUAUUUUAGUAUGGCCUUAUGGCAAAGAACACUGUAUUAUUU: 2.76 ratio
GGUGCACCUUCAUUUGUUAGAUUAUAUCAGUACCCCAACUUUGCUGGACCUCAUGCAGCUUUAGCUAAUAAAAGUUUCUUUAAGGCAGAUAAAGUUACAAUGCUGUGGAAUAAAAAAGCU: 2.62 ratio
GUAGGCAUGCCCGUCAAAGCAGAUGGCAAGGCCUUUUGCAACGUGGGUUUCUUUGAGGAAUUUCCUCUGCAAGAGCCUCAGGCGCCUCUCAAGUUCAACCCAUGUUUUGAGAUGCCUAUG: 0.0975 ratio
AUCAUUGGUUAUGCCAGAAACCCUUCACUGAAGCAGCAGCUGUUCUCAUAUGCUAUCCUGGGAUUUGCCUUGUCUGAAGCUAUGGGUCUCUUUUGUUUGAUGGUUGCGUUCUUGAUCUUG: 0.125 ratio
CAGAAUACCCAGGGUCUCAUUUUUGUGGUAGAUAGCAAUGAUCGUGAAAGAAUCCAGGAAGGAGCAGCUGUGCUGCAGAAAAUGCUUCUGGAAGAUGAGCUGCAGGAUGCAGUGCUGCUC: 0.375 ratio
GACAUCUGUCGUAGAAACCUCGAUAUUGAGCGUCCAACCUAUACUAACCUGAAUAGGUUAAUAGGUCAAAUUGUGUCCUCCAUCACUGCUUCCCUGAGAUUUGAUGGAGCCCUGAAUGUU: 0.108 ratio
CAGAAUCGAGAGGGCCUGAGGGCCCUGCAGAAGGAUCUCAGCCUCUCUGAAGAUGUGAUGGUUUGCUUCGGGAACAUGUUUAUCAAGAUGCCUCACCCUGAGACAAAGGAAAUGAUUGAA: 0.155 ratio

Study 2
Target: ABI1, truncated, D143A, DHFR fusion (Arabidopsis thaliana)
Method: DHFR PCA, deep sequencing
Matrix: yeast
Setting: methotrexate growth selection, single substitutions
With: (+)-ABA 17 µM
Reference: wild-type fitted maximum
Reading: higher = stronger binding
Quantity: relative binding score
Starting sequence: PYL1, truncated, DHFR fusion (Arabidopsis thaliana); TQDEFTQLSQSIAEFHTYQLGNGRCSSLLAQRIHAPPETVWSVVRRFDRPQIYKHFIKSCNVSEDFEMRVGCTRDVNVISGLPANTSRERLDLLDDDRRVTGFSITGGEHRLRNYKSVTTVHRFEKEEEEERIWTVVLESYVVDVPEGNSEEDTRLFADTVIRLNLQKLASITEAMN
V40Y: 2.96%
L166S: -2.17%
F47C: -8.36%
L156C: 90.9%

Study 3
Target: CCNB3, cyclin fold, Cln2 fusion (human)
Method: yeast growth competition, sequencing
Matrix: yeast
Setting: weak parent motif
Reference: not given
Reading: higher = stronger binding
Quantity: normalised enrichment score
Starting sequence: PKN2 docking peptide (human); VSAVQKLDFSDTM
T12V: 0.0329
T12S: 0.489
Q5R: 1.41
A3H: 0.302
S10N: -0.186
K6E: 0.0813

Further values, each from its own experiment
PhoQ, residues 284 288 289 292 302 303 AANNSF — fold induction (PhoP, residues 12 14 15 18 19 IQSYL (Escherichia coli, UniProt P23836); Sort-seq, item: YFP reporter; E. coli; PhoQ-PhoP variant library, with: 10 µM Mg2+; reference: high Mg2+ state, higher = stronger signaling): 28.6

Repeated from above (study 1):
GGUGCACCUUCAUUUGUUAGAUUAUAUCAGUACCCCAACUUUGCUGGACCUCAUGCAGCUUUAGCUAAUAAAAGUUUCUUUAAGGCAGAUAAAGUUACAAUGCUGUGGAAUAAAAAAGCU: 2.62 ratio
GUAGGCAUGCCCGUCAAAGCAGAUGGCAAGGCCUUUUGCAACGUGGGUUUCUUUGAGGAAUUUCCUCUGCAAGAGCCUCAGGCGCCUCUCAAGUUCAACCCAUGUUUUGAGAUGCCUAUG: 0.0975 ratio
AUCAUUGGUUAUGCCAGAAACCCUUCACUGAAGCAGCAGCUGUUCUCAUAUGCUAUCCUGGGAUUUGCCUUGUCUGAAGCUAUGGGUCUCUUUUGUUUGAUGGUUGCGUUCUUGAUCUUG: 0.125 ratio
